{"data": "Measured values collected from several papers", "note": "Values joined by “and” are separate records of one study, mostly repeats; a detail may differ. ± gives the spread as reported."}
{"SMILES": "COC1OC(C)C(OS(=O)(=O)O)C(OC2OC(C)C(OS(=O)(=O)O)C(OC3OC(C)C(OS(=O)(=O)O)C(OC4OC(C)C(OS(=O)(=O)O)C(OC5OC(C)C(OS(=O)(=O)O)C(OS(=O)(=O)O)C5O)C4O)C3O)C2O)C1O (stereo not shown)", "system": "human plasma", "setting": "128 µg/mL", "quantity": "activated partial thromboplastin time", "value": "41.8 ± 0.4 s"}
{"SMILES": "Nc1ccc2c(c1)CN(C1CCC(=O)NC1=O)C2=O (stereo not shown)", "test": "deuterium-hydrogen exchange", "system": "aqueous phosphate buffer", "setting": "pH 7.4, 37 °C", "quantity": "exchange rate constant", "value": "-0.021 h⁻¹"}
{"SMILES": "COC1OC(C)C(OC2OC(C)C(OS(=O)(=O)O)C(OC3OC(C)C(OC4OC(C)C(OS(=O)(=O)O)C(OC5OC(C)C(OC6OC(C)C(OS(=O)(=O)O)C(OS(=O)(=O)O)C6OS(=O)(=O)O)C(OS(=O)(=O)O)C5OS(=O)(=O)O)C4OS(=O)(=O)O)C(OS(=O)(=O)O)C3OS(=O)(=O)O)C2OS(=O)(=O)O)C(OS(=O)(=O)O)C1OS(=O)(=O)O (stereo not shown)", "system": "human plasma", "setting": "128 µg/mL", "quantity": "activated partial thromboplastin time", "value": "213.2 ± 1 s"}
{"SMILES": "CCCCCCCCCCCCCCCC(=O)NCCCC[C@H](NC(=O)[C@H](CCC(=O)O)NC(=O)[C@H](Cc1ccc(O)cc1)NC(=O)[C@H](CCC(=O)O)NC(=O)COCC(=O)NCCCOCCOCCOCCCNC(=O)[C@H](Cc1ccccc1)NC(=O)[C@H](CC(N)=O)NC(=O)[C@H](Cc1c[nH]cn1)NC(=O)[C@@H](NC(=O)[C@H](CC(=O)O)NC(=O)[C@H](CCC(N)=O)NC(=O)[C@H](CC(C)C)NC(=O)[C@H](CCCCN)NC(=O)[C@H](CCCCN)NC(=O)[C@H](CCCNC(=N)N)NC(=O)[C@H](CC(C)C)NC(=O)[C@H](Cc1c[nH]c2ccccc12)NC(=O)[C@H](CCC(=O)O)NC(=O)[C@@H](NC(=O)[C@H](CCCNC(=N)N)NC(=O)[C@H](CCC(=O)O)NC(=O)[C@H](CCSC)NC(=O)[C@H](CO)NC(=O)[C@H](CC(N)=O)NC(=O)[C@H](CC(C)C)NC(=O)[C@H](Cc1c[nH]cn1)NC(=O)[C@H](CCCCN)NC(=O)CNC(=O)[C@H](CC(C)C)NC(=O)[C@H](CC(N)=O)NC(=O)[C@H](Cc1c[nH]cn1)NC(=O)[C@H](CCSC)NC(=O)[C@H](CC(C)C)NC(=O)[C@H](CCC(N)=O)NC(=O)[C@@H](NC(=O)[C@H](CCC(=O)O)NC(=O)[C@H](CO)NC(=O)[C@@H](NC(=O)[C@@H](N)CO)C(C)C)[C@@H](C)CC)C(C)C)C(C)C)C(=O)N[C@@H](CCC(=O)O)C(=O)N[C@@H](Cc1ccc(O)cc1)C(=O)N[C@@H](CCC(=O)O)C(N)=O", "test": "micro-CT", "system": "humanized PTH1R mouse, femur", "setting": "dose not given", "quantity": "bone mineral density", "value": "690 mgHA/cm3 and 512 mgHA/cm3 and 467 mgHA/cm3"}
{"SMILES": "COC1OC(C)C(OC2OC(C)C(OS(=O)(=O)O)C(OC3OC(C)C(OC4OC(C)C(OS(=O)(=O)O)C(OC5OC(C)C(OC6OC(C)C(OS(=O)(=O)O)C(OC7OC(C)C(OS(=O)(=O)O)C(OS(=O)(=O)O)C7OS(=O)(=O)O)C6OS(=O)(=O)O)C(OS(=O)(=O)O)C5OS(=O)(=O)O)C4OS(=O)(=O)O)C(OS(=O)(=O)O)C3OS(=O)(=O)O)C2OS(=O)(=O)O)C(OS(=O)(=O)O)C1OS(=O)(=O)O (stereo not shown)", "system": "human plasma", "setting": "8 µg/mL", "quantity": "activated partial thromboplastin time", "value": "54.3 s and 54.1 s and 54.4 s"}
{"SMILES": "COc1cc(O)ccc1CCC(c1ccc(O)cc1)c1cc2c(c(C)c1O)OC(c1ccc(O)cc1)CC2 (mixture of isomers)", "test": "measured: 12-HETE", "system": "human whole blood", "setting": "3 µM, with: Escherichia coli", "quantity": "amount", "value": "33000 ± 4720 pg/mL blood"}
{"SMILES": "COC1OC(C)C(OC2OC(C)C(O)C(OC3OC(C)C(OC4OC(C)C(O)C(OC5OC(C)C(OC6OC(C)C(O)C(OC7OC(C)C(O)C(OS(=O)(=O)O)C7OS(=O)(=O)O)C6OS(=O)(=O)O)C(OS(=O)(=O)O)C5OS(=O)(=O)O)C4OS(=O)(=O)O)C(OS(=O)(=O)O)C3OS(=O)(=O)O)C2OS(=O)(=O)O)C(OS(=O)(=O)O)C1OS(=O)(=O)O (stereo not shown)", "system": "human plasma", "setting": "16 µg/mL", "quantity": "activated partial thromboplastin time", "value": "44.3 s and 44.4 s and 45.8 s"}
{"SMILES": "COc1cc2c(NC3CCN(C(C)C)CC3)cc(N3CCOCC3)nc2cc1OCCCN1CCCC1", "test": "TMT proteomics, measured: LDHB", "system": "5xFAD mice, hippocampus", "setting": "dose not given, unit not given", "how to read": "reference: untreated 5xFAD", "quantity": "protein level difference", "value": 0.144}
{"SMILES": "COc1ccc(C(=O)CCc2cc(C(CCc3ccc(O)cc3OC)c3ccc(O)cc3)c(O)cc2OC)cc1 (racemic)", "system": "human blood", "setting": "0.3 µM, with: A23187", "quantity": "TXB2 level", "value": "763 ± 239 pg/mL"}
{"SMILES": "CC(=O)[O-].O.O.O.O.[Ni+2].[O-]c1ccc(Br)cc1C=NCCN1CCOCC1", "test": "DPPH radical scavenging", "setting": "80 µM", "quantity": "inhibition", "value": "23.1%"}
{"SMILES": "COC1CN([C@H]2CC[C@H]([C@@]3(C)Oc4c(Cl)cc(C(=O)NCc5c(SC)cc(C)[nH]c5=O)c(C)c4O3)CC2)C1", "test": "RNA-seq, measured: FRMD6", "system": "human, whole blood", "setting": "dose not given, 24 h", "how to read": "reference: pretreatment baseline", "quantity": "log2 fold change", "value": 2.18}
{"SMILES": "COC1OC(C)C(OS(=O)(=O)O)C(OC2OC(C)C(OS(=O)(=O)O)C(OS(=O)(=O)O)C2OS(=O)(=O)O)C1OS(=O)(=O)O (stereo not shown)", "system": "human plasma", "setting": "128 µg/mL", "quantity": "activated partial thromboplastin time", "value": "43.3 ± 0.4 s"}
{"SMILES": "CC(C)C[C@H](NC(=O)CNC(=O)[C@H](CCC(N)=O)NC(=O)[C@H](CC(C)C)NC(=O)[C@H](CC(C)C)NC(=O)[C@H](CCCNC(=N)N)NC(=O)[C@H](CCC(N)=O)NC(=O)[C@H](CC(C)C)NC(=O)[C@H](CCCNC(=N)N)NC(=O)[C@H](C)NC(=O)CNC(=O)[C@H](CCC(=O)O)NC(=O)[C@H](CCCNC(=N)N)NC(=O)[C@H](CC(C)C)NC(=O)[C@H](CCCNC(=N)N)NC(=O)[C@H](CO)NC(=O)[C@H](CC(C)C)NC(=O)[C@H](CCC(=O)O)NC(=O)[C@H](CO)NC(=O)[C@@H](NC(=O)[C@H](Cc1ccccc1)NC(=O)[C@@H](NC(=O)CNC(=O)[C@H](CC(=O)O)NC(=O)C(C)(C)NC(=O)[C@@H](N)Cc1c[nH]cn1)[C@@H](C)O)[C@@H](C)O)C(=O)N[C@@H](CC(C)C)C(=O)N[C@@H](CCC(N)=O)C(=O)NCC(=O)N[C@@H](CC(C)C)C(=O)N[C@H](C(=O)NCC(=O)N[C@@H](CCCCNC(=O)COCCOCCNC(=O)COCCOCCNC(=O)CC[C@H](NC(=O)CCCCCCCCCCCCCCCCC(=O)O)C(=O)O)C(N)=O)C(C)C", "test": "quantitative magnetic resonance", "system": "DIO C57BL/6J mice", "setting": "sc, 300 nmol/kg twice daily, day 8", "how to read": "reference: vehicle", "quantity": "fat mass loss", "value": "6.6%"}
{"SMILES": "COC1OC(C)C(OC2OC(C)C(OS(=O)(=O)O)C(OC3OC(C)C(OC4OC(C)C(OS(=O)(=O)O)C(OC5OC(C)C(OC6OC(C)C(OS(=O)(=O)O)C(OC7OC(C)C(OC8OC(C)C(OS(=O)(=O)O)C(OS(=O)(=O)O)C8O)C(OS(=O)(=O)O)C7O)C6O)C(OS(=O)(=O)O)C5O)C4O)C(OS(=O)(=O)O)C3O)C2O)C(OS(=O)(=O)O)C1O (stereo not shown)", "system": "human plasma", "setting": "128 µg/mL", "quantity": "activated partial thromboplastin time", "value": "40.6 ± 0.6 s"}
{"SMILES": "Cc1[nH]nc2c1N=C(c1ccccc1Cl)c1cnc(N3CCOCC3)cc1N2", "system": "mouse sample J TNBC PDX", "setting": "oral, 15 mg/kg, 120 h, 5 days per week", "quantity": "tumour growth inhibition", "value": "71%"}
{"SMILES": "COC1OC(C)C(OC2OC(C)C(O)C(OC3OC(C)C(OC4OC(C)C(O)C(OC5OC(C)C(OC6OC(C)C(O)C(OS(=O)(=O)O)C6OS(=O)(=O)O)C(OS(=O)(=O)O)C5OS(=O)(=O)O)C4OS(=O)(=O)O)C(OS(=O)(=O)O)C3OS(=O)(=O)O)C2OS(=O)(=O)O)C(OS(=O)(=O)O)C1OS(=O)(=O)O (stereo not shown)", "system": "human plasma", "setting": "16 µg/mL", "quantity": "activated partial thromboplastin time", "value": "46.8 s and 46.5 s and 45.8 s"}
{"SMILES": "CN1CCC[C@]1(C)/C=C/S(=O)(=O)NC(=O)Nc1c2c(cc3c1CCC3)CCC2", "system": "human, whole blood ex vivo", "setting": "50 mg single dose, 3 h, single ascending dose, with: LPS and ATP", "quantity": "IL-18 inhibition", "value": "130%"}
{"SMILES": "COC1OC(C)C(OC2OC(C)C(OS(=O)(=O)O)C(OC3OC(C)C(OC4OC(C)C(OS(=O)(=O)O)C(OS(=O)(=O)O)C4O)C(OS(=O)(=O)O)C3O)C2O)C(OS(=O)(=O)O)C1O (stereo not shown)", "system": "human plasma", "setting": "128 µg/mL", "quantity": "activated partial thromboplastin time", "value": "33.6 ± 0.2 s"}
{"SMILES": "CCCCCc1ccc(S(=O)(=O)N2CC2C(=O)OC)cc1 (stereo not shown)", "system": "mouse, Lewis lung carcinoma", "setting": "intraperitoneal, 5 mg/kg, 16 doses, day 16", "quantity": "tumour growth inhibition", "value": "71%"}
{"SMILES": "O=C([O-])CN1CCN(CC(=O)[O-])CCN(CC(=O)c2ccc(-c3ccc(OCC(=O)O)cc3)cc2)CCN(CC(=O)[O-])CC1.[Gd+3]", "system": "mouse serum", "setting": "0.3 mM, 25 °C, 7 T", "quantity": "T1 relaxation time", "value": "558 ms"}
{"SMILES": "Cc1ccc(N(O)/N=N/c2ccc(S(=O)(=O)Nc3nccs3)cc2)cc1", "test": "ABTS scavenging", "setting": "300 µg/mL", "quantity": "inhibition", "value": "96.4%"}
{"SMILES": "Nc1nc2cc(CC[C@H]3C[C@@H](n4ccc5c(N)ncnc54)[C@H](O)[C@@H]3O)ccc2cc1Br", "system": "NCI-H441 xenograft, mouse", "setting": "10.0 mg/kg/day, day 38", "quantity": "%ΔTGI", "value": "141%"}
{"SMILES": "C[S@@](=N)(=O)c1ccc(C(=O)Nc2cc(-c3ccc(F)cc3)ccc2N)cc1", "system": "patients, STK11-mutant tumours, tumour biopsy", "setting": "80 and 120 mg, with: pembrolizumab", "how to read": "reference: pretreatment", "quantity": "PD-L1 TPS", "value": "increased"}
{"SMILES": "COCC1CN(C2CCN(c3cc(OC)c(Nc4ncc(Br)c(Nc5ccc6c(c5P(C)(C)=O)OCCO6)n4)cc3C)CC2)C1", "test": "RECIST 1.1", "system": "advanced EGFR-mutant NSCLC patients", "setting": "240 mg once daily", "quantity": "disease control rate", "value": "0%"}
{"SMILES": "COc1ccc(NC(=O)c2ccc3[nH]c(-c4ccc(N(C)C)cc4)nc3c2)cn1", "system": "CT26, BALB/c mice, subcutaneous syngeneic graft", "setting": "dose not given, day 14", "quantity": "tumour volume", "value": "662 mm3 and 766 mm3 and 393 mm3 and 88.8 mm3 and 768 mm3"}
{"note": "Repeated from above:"}
{"SMILES": "CC(=O)[O-].O.O.O.O.[Ni+2].[O-]c1ccc(Br)cc1C=NCCN1CCOCC1", "test": "DPPH radical scavenging", "setting": "80 µM", "quantity": "inhibition", "value": "23.1%"}
{"SMILES": "CCCCCc1ccc(S(=O)(=O)N2CC2C(=O)OC)cc1 (stereo not shown)", "system": "mouse, Lewis lung carcinoma", "setting": "intraperitoneal, 5 mg/kg, 16 doses, day 16", "quantity": "tumour growth inhibition", "value": "71%"}
